Measured values collected from several papers.
Numbered parts are unrelated; each lists some results of a single study.
Sequence of UniProt Q12866 (whole entry, looked up): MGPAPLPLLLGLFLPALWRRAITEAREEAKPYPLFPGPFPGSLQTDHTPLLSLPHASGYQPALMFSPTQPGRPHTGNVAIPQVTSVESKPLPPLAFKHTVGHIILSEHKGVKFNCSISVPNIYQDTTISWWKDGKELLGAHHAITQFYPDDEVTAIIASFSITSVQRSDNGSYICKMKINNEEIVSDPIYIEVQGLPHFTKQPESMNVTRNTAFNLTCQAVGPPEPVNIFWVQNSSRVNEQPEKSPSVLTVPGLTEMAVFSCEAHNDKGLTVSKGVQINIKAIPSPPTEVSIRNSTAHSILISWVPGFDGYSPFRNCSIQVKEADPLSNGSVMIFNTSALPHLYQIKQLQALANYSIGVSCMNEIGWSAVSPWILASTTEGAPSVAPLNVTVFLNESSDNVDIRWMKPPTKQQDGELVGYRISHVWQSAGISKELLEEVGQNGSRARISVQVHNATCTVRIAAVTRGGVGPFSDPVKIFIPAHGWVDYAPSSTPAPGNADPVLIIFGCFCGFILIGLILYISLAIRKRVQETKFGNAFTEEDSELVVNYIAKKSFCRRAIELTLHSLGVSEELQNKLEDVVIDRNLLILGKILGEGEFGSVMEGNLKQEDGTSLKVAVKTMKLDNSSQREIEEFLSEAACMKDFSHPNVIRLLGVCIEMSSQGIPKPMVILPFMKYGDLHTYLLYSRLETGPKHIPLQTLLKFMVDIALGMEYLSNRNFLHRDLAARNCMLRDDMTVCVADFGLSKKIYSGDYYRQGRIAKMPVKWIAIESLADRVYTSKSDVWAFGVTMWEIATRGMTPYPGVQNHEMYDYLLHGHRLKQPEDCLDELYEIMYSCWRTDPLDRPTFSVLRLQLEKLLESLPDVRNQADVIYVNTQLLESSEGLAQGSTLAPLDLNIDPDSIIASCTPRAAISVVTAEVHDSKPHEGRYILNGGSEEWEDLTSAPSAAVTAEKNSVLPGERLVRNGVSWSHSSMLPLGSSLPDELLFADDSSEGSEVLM
Sequence of UniProt Q13976 (whole entry, looked up): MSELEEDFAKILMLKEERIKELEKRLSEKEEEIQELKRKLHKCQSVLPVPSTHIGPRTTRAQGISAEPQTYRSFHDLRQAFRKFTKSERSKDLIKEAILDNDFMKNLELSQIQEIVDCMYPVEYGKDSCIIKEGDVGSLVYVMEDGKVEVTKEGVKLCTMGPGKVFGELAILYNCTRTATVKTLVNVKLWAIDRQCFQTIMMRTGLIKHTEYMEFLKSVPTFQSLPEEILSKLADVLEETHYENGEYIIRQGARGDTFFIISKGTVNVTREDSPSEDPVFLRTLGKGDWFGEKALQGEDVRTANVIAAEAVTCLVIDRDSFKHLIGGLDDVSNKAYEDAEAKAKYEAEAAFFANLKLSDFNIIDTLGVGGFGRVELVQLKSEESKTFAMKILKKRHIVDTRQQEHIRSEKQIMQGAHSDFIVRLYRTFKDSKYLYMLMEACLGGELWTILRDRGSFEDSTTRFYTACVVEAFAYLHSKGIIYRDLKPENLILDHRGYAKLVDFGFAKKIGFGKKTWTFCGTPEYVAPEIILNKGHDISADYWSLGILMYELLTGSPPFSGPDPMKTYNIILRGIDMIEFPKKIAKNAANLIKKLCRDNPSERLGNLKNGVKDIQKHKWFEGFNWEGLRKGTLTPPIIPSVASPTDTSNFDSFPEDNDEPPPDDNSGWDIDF
Sequence of UniProt Q5VT25 (whole entry, looked up): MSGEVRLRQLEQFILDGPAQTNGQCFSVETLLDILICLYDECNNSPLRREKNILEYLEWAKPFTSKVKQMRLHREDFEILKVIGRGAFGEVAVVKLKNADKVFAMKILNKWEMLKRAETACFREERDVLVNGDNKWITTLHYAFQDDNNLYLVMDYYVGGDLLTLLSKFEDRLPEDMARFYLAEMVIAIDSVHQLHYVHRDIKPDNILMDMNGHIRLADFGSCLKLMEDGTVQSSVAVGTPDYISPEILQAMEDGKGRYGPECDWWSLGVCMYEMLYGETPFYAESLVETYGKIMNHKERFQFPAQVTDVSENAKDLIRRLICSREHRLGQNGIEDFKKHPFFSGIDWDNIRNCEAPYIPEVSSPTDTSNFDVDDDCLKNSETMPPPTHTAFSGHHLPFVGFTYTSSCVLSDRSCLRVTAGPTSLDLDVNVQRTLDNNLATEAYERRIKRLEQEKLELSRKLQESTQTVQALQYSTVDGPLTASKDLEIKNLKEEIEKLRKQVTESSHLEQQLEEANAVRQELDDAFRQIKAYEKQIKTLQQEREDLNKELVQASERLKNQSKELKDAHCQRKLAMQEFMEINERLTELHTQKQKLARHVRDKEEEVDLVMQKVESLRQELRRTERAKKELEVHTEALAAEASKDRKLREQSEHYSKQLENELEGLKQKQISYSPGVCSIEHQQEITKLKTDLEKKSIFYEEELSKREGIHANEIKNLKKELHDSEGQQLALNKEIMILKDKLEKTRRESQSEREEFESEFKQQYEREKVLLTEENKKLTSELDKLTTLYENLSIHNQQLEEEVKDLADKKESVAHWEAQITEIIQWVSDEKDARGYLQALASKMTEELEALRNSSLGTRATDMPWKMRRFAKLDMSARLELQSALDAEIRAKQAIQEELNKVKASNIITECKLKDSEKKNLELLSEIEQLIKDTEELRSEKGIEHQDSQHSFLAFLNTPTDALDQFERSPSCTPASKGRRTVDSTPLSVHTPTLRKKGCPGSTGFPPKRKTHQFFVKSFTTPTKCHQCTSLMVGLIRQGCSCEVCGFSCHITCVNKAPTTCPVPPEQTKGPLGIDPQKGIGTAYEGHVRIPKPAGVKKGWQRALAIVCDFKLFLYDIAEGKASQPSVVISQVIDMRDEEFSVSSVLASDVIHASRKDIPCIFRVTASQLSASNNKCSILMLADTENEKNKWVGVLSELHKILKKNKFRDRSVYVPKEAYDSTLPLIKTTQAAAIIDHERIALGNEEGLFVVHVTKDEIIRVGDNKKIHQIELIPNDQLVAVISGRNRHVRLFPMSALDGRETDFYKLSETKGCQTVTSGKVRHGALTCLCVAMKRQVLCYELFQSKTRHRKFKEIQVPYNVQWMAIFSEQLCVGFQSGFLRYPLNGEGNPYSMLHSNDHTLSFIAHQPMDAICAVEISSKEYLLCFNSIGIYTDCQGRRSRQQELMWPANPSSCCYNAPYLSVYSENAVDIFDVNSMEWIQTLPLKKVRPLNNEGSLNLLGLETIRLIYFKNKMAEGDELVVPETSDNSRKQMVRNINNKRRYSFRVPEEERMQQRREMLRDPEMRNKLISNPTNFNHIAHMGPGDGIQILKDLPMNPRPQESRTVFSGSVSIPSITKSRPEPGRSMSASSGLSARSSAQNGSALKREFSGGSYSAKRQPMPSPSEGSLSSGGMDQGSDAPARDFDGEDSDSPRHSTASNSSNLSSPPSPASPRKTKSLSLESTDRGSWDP
Sequence of UniProt P43403 (whole entry, looked up): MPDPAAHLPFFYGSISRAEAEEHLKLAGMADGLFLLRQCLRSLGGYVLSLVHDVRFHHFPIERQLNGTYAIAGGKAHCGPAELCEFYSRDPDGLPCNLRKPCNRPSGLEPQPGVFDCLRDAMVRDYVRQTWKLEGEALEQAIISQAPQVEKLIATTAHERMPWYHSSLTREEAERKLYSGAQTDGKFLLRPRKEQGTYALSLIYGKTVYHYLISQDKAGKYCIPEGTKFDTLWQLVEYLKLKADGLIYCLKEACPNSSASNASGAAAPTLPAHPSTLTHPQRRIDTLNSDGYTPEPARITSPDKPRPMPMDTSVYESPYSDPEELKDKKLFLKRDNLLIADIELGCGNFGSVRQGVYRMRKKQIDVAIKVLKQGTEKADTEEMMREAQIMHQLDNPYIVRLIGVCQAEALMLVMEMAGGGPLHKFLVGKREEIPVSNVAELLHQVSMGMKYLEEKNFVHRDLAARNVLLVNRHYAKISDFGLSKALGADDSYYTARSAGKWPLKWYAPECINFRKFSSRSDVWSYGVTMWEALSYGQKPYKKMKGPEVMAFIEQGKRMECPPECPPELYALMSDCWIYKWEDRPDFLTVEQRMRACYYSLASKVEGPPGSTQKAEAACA
Sequence of UniProt Q9UHD2 (whole entry, looked up): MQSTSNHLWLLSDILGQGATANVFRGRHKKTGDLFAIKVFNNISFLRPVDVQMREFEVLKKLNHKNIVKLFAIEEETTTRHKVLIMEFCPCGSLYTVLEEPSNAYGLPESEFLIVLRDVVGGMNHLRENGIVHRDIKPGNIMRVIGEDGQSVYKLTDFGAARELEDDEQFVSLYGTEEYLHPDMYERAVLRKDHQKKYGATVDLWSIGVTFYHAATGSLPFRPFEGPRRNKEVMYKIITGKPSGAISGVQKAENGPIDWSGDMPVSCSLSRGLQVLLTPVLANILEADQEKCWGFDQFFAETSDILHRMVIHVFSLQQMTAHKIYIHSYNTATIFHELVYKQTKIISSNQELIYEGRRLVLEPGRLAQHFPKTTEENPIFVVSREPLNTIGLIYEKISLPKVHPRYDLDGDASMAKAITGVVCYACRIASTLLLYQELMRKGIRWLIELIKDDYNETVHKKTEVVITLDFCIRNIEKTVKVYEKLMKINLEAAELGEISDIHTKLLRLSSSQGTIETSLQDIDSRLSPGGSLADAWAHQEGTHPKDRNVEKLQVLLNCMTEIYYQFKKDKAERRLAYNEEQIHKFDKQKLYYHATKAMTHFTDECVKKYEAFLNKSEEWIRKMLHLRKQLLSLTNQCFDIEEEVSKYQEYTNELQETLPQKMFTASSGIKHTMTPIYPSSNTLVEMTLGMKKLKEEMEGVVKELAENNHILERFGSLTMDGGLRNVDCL
Sequence of UniProt P46734 (whole entry, looked up): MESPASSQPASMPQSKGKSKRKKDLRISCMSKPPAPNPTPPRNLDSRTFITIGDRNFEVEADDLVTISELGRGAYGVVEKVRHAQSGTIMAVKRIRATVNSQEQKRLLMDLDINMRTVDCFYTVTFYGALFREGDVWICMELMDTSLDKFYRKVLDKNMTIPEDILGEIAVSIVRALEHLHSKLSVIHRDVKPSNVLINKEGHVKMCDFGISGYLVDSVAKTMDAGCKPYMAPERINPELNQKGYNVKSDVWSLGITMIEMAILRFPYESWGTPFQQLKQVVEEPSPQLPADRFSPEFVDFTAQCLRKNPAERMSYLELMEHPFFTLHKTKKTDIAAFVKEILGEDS

Sample 1
SMILES: C=CC(=O)N1CCC([C@@H]2CCNc3c(C(N)=O)c(-c4ccc(Oc5ccccc5)cc4)nn32)CC1
Tested at: 1 µM
| target | assay | inhibition [%] |
| --- | --- | --- |
| Ephrin type-B receptor 3 (EPHB3, Homo sapiens, UniProt P54753) | cell-free assay | 9 |
| Dual specificity protein kinase CLK2 (CLK2, Homo sapiens, UniProt P49760) | enzyme activity, inhibitor | 1 |
| Dual specificity mitogen-activated protein kinase kinase 3 (MAP2K3, Homo sapiens, UniProt P46734) | enzyme activity, inhibitor | 23 |
| Cyclin-dependent kinase-like 3 (CDKL3, Homo sapiens, UniProt Q8IVW4) | enzyme activity | 2 |
| cGMP-dependent protein kinase 1 (PRKG1, Homo sapiens, UniProt Q13976) | enzyme activity, inhibitor | 18 |
| Serine/threonine-protein kinase Nek2 (NEK2, Homo sapiens, UniProt P51955) | enzyme activity, inhibitor | 11 |
| Mitogen-activated protein kinase kinase kinase 15 (MAP3K15, Homo sapiens, UniProt Q6ZN16) | enzyme activity, inhibitor | 10 |
| Dual specificity mitogen-activated protein kinase kinase 4 (MAP2K4, Homo sapiens, UniProt P45985) | enzyme activity, inhibitor | 36 |

Sample 2
Cell line: mouse MPNST tumor cells
Method: high-content immunofluorescence imaging
Item: nuclear SOX9
Tested at: 10 µM
Time: 12 h
Notes: mean of 2 replicates
Reference: DMSO control
Direction: higher = more nuclear SOX9
| SMILES | nuclear SOX9 intensity |
| --- | --- |
| CC[C@H]1OC(=O)[C@H](C)[C@@H](O[C@H]2C[C@@](C)(OC)[C@@H](O)[C@H](C)O2)[C@H](C)[C@@H](O[C@@H]2O[C@H](C)C[C@H](N(C)C)[C@H]2O)[C@](C)(O)C[C@@H](C)[C@@H]2N[C@@H](COCCOC)O[C@H]([C@H]2C)[C@]1(C)O | 117 % of DMSO |
| O=C(O)P(=O)(O)O | 98.1 % of DMSO |
| COC(=O)[C@H]1[C@H]2C[C@@H]3c4[nH]c5cc(OC)ccc5c4CCN3C[C@H]2C[C@@H](OC(=O)c2cc(OC)c(OC)c(OC)c2)[C@@H]1OC | 121 % of DMSO |
| CC(C)CNc1nc(-c2cccc3ncccc23)cn2c(-c3ccc(C(=O)NC4CC4)cc3)cnc12 | 139 % of DMSO |

Sample 3
SMILES: CCCOc1ccc([C@@H]2[C@@H](C(=O)O)[C@H](c3ccc4c(c3)OCO4)CN2CC(=O)Nc2c(CC)cccc2CC)cc1
Read-out: cell-free assay
Method: competition with immobilised ligand
Tested at: 1 µM
| target | remaining binding [%] |
| --- | --- |
| MAP kinase-interacting serine/threonine-protein kinase 2 (MKNK2, Homo sapiens, UniProt Q9HBH9) | 87 |
| Serine/threonine-protein kinase VRK2 (VRK2, Homo sapiens, UniProt Q86Y07) | 59 |
| Serine/threonine-protein kinase WNK1 (WNK1, Homo sapiens, UniProt Q9H4A3) | 91 |
| Serine/threonine-protein kinase SIK2 (SIK2, Homo sapiens, UniProt Q9H0K1) | 96 |
| Epidermal growth factor receptor (EGFR, Homo sapiens, UniProt P00533, L858R/T790M) | 87 |
| RAC-beta serine/threonine-protein kinase (AKT2, Homo sapiens, UniProt P31751) | 100 |
| Serine/threonine-protein kinase TBK1 (TBK1, Homo sapiens, UniProt Q9UHD2) | 100 |
| Peripheral plasma membrane protein CASK (CASK, Homo sapiens, UniProt O14936) | 89 |
| Serine/threonine-protein kinase Nek5 (NEK5, Homo sapiens, UniProt Q6P3R8) | 55 |
| Mitogen-activated protein kinase 14 (MAPK14, Homo sapiens, UniProt Q16539) | 100 |
| MAP kinase-interacting serine/threonine-protein kinase 1 (MKNK1, Homo sapiens, UniProt Q9BUB5) | 73 |
| SRSF protein kinase 1 (SRPK1, Homo sapiens, UniProt Q96SB4) | 94 |
| Tyrosine-protein kinase ZAP-70 (ZAP70, Homo sapiens, UniProt P43403) | 94 |
| Ribosomal protein S6 kinase alpha-2, N-terminal kinase domain (RPS6KA2, Homo sapiens, UniProt Q15349) | 100 |
| Casein kinase I isoform epsilon (CSNK1E, Homo sapiens, UniProt P49674) | 98 |
| Serine/threonine-protein kinase MRCK alpha (CDC42BPA, Homo sapiens, UniProt Q5VT25) | 90 |

Sample 4
SMILES: C[C@H]1CC[C@H](n2c3cnccc3c3cnc(Nc4ccc5c(n4)CCN(C(=O)CO)C5)nc32)CC1
Tested at: 1 µM
| target | assay | remaining binding [%] |
| --- | --- | --- |
| Serine/threonine-protein kinase 38-like (STK38L, Homo sapiens, UniProt Q9Y2H1) | binding | 79 |
| Cyclin-dependent kinase 3 (CDK3, Homo sapiens, UniProt Q00526) | binding, competition with immobilised ligand | 70 |
| Serine/threonine-protein kinase TNNI3K (TNNI3K, Homo sapiens, UniProt Q59H18) | cell-free assay, competition with immobilised ligand | 100 |
| TGF-beta receptor type-1 (TGFBR1, Homo sapiens, UniProt P36897) | cell-free assay, competition with immobilised ligand | 95 |
| Serine/threonine-protein kinase NIM1 (NIM1K, Homo sapiens, UniProt Q8IY84) | binding | 100 |
| Tyrosine-protein kinase Mer (MERTK, Homo sapiens, UniProt Q12866) | binding, competition with immobilised ligand | 45 |

Repeated from above (sample 2):
| SMILES | nuclear SOX9 intensity |
| --- | --- |
| COC(=O)[C@H]1[C@H]2C[C@@H]3c4[nH]c5cc(OC)ccc5c4CCN3C[C@H]2C[C@@H](OC(=O)c2cc(OC)c(OC)c(OC)c2)[C@@H]1OC | 121 % of DMSO |
| CC(C)CNc1nc(-c2cccc3ncccc23)cn2c(-c3ccc(C(=O)NC4CC4)cc3)cnc12 | 139 % of DMSO |
| O=C(O)P(=O)(O)O | 98.1 % of DMSO |
